Measurements from different studies.
A part holds a random share of what one study measured.

Series 1
Target: Interferon regulatory factor 7, full length, phosphomimetic (IRF7, Homo sapiens, UniProt Q92985, residues 1-503, S101K/S471D/S472D/S475D/S476D/S477D/S483D/S484D/S487D)
Method: protein-binding microarray
Molecule type: double-stranded DNA, one strand shown
Sample: in vitro
Tested at: 250 nM
Setting: 60-bp whole probe
With: salmon DNA 0.4 mg/ml
Baseline: random background probes
Direction: higher = stronger binding
Quantity: log fluorescence
All sequences stand within: GCCTAGCAC … GTCTTGATTCGCTTGACGCTGCTG
Target sequence (chain): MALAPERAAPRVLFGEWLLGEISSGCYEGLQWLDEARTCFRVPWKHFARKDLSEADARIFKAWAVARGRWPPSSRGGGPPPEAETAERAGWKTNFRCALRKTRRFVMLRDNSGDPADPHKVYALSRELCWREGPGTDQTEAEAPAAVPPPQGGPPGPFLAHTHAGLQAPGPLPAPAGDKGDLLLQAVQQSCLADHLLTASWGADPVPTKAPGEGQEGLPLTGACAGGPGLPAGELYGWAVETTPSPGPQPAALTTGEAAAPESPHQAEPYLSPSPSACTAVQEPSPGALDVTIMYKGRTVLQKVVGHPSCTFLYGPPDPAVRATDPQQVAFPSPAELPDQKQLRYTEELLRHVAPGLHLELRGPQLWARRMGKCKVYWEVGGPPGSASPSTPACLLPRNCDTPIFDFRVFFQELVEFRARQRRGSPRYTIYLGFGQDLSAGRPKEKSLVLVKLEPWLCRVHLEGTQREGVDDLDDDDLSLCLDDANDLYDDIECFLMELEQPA
GACGGACTGCTGCTGCTGACGTGCTAG: -1.1 z-score
TTAGATCTCAGACTGGATTAGTGCTAG: 0.11 z-score
TTTGGTTTCGGTATCGGTTAGTGCTAG: 11.9 z-score
CATGCTCTTATATACCTGTATGTGCTA: 0.415 z-score
CCAAGTTTATACCTTAGGTTGTGCTAG: 0.169 z-score
GACGATATCAAACTGGAGACGTGCTAG: -0.219 z-score
TTAGAACTGGGGATTGGATTAGTGCTA: -0.359 z-score
TTAGGTCTCCTTTGCCTTTAGTGCTAG: 0.438 z-score
TATGTCTGGCCCAAGCAGCCGTGCTAG: -0.293 z-score
TTAGGTATCCTACTGATTTAGTGCTAG: -0.0863 z-score
TTAGATCTCAGTTGCGATTAGTGCTAG: 0.818 z-score
TTAGGTTTCCTTATCCTCTAGTGCTAG: 2.97 z-score
TCAGAAATCTCAATGGGACTGTGCTAG: -0.216 z-score
TAAAATTTTGCTTCTAGAACGTGCTAG: -0.0486 z-score
GACGGTTTCCTTCTTCTGACGTGCTAG: 2.72 z-score
TTAGGTATCCTGATCCTTTAGTGCTAG: -0.308 z-score
GACGATATCGGGTATCGACACGTGCTA: -0.122 z-score
TTAGGTTTCGACGATCGGTTAGTGCTA: 1.32 z-score
TTAGGTTTGGGTATCGGTTAGTGCTAG: 1.12 z-score
TCTCTCCCTTTATCTCTTTTGTGCTAG: 1.09 z-score
GACGGACTGCTACTGCTGGCGTGCTAG: -1.09 z-score
GACGATATCACACTGGAGACGTGCTAG: -0.0298 z-score
TCAACCATCTAGTTCTGACTGTGCTAG: -0.465 z-score
GACGGACTCCTTATCCTGACGTGCTAG: -0.14 z-score
AACTTGGCAGGAGCGAATGGGTGCTAG: -0.688 z-score

Series 2
Target: Sal-like protein 4, full length isoform A (SALL4, Homo sapiens, UniProt Q9UJQ4, residues 1-1053)
Sequence of UniProt Q9UJQ4 (whole entry, looked up): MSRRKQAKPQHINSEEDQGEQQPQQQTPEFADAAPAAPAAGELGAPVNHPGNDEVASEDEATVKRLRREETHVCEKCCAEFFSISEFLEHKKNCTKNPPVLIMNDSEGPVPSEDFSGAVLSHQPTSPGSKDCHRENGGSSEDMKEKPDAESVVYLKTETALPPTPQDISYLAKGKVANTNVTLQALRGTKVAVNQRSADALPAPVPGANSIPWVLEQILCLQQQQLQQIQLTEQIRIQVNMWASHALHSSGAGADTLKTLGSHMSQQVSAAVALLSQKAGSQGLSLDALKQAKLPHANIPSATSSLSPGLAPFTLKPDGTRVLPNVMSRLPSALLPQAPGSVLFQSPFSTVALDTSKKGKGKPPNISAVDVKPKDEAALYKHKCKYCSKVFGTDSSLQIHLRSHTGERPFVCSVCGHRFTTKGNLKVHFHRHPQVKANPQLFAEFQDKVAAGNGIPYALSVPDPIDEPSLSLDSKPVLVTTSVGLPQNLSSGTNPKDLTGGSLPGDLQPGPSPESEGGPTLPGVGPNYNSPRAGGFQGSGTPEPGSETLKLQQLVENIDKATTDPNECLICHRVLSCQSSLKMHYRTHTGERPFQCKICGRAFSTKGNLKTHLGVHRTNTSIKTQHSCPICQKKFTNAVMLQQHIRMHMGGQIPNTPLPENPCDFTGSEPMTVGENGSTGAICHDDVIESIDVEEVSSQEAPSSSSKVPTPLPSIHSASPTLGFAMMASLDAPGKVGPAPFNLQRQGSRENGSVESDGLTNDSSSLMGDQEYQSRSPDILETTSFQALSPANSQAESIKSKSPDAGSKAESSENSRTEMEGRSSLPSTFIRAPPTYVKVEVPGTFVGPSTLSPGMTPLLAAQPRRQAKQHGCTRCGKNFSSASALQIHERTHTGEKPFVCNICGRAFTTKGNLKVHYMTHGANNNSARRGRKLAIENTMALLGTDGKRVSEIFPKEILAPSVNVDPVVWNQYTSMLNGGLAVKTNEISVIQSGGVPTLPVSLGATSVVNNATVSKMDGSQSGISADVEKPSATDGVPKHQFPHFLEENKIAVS
Method: universal PBM
Molecule type: double-stranded DNA, one strand shown
Sample: in vitro
Tested at: 600 nM
Setting: 8-mer, flanks averaged, mean of replicates
Direction: higher = stronger binding
Quantity: E-score
GGAAGTAC: -0.155
AACAAGGT: 0.0765
TAATGTAA: 0.327
ACCTCCAT: -0.0927
AGACAACA: 0.0704
GTCGATAA: 0.111
AATCAAGT: 0.159
ACCTGCGT: -0.16
GTCCACAA: 0.058
ATTAAAAT: 0.398
GTTGAAAC: 0.031
CGCACGTC: -0.188
AGTTCCTG: -0.189
CTCTTGTC: -0.0373
ATACGCGC: -0.0853
AGAGGTCC: -0.216
ACGGGGCC: -0.353
GCAAGGGC: -0.293
CGAGGTAC: -0.215
ATACGGTG: 0.0704
AGCTGGGG: -0.3
AAGTGAGA: 0.017
ATTGTGTA: 0.237
TCGTACCA: 0.0182
CCCTGACG: -0.302

Series 3
Target: RING finger protein unkempt homolog, zinc fingers 1-6, GST-SBP tag (UNK, Homo sapiens, UniProt Q9C0B0, residues 30-357)
Method: RNA Bind-n-Seq
Molecule type: RNA
Sample: in vitro
Tested at: not given
Setting: RNA with constant flanks, human and mouse sites, ends assumed
Baseline: input RNA pool
Direction: higher = stronger binding
Quantity: bound/input enrichment
Target sequence (chain): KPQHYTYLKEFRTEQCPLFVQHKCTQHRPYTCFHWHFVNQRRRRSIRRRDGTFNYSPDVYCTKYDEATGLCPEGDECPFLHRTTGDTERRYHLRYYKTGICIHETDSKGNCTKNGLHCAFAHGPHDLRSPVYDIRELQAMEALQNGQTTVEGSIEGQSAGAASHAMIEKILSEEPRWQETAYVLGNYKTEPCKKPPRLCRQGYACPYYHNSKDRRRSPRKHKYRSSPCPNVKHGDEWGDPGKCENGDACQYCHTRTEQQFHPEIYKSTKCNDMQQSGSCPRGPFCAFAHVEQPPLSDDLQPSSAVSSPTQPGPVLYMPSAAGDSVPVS
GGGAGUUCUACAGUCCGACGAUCGCUGGAAACGGGCGGCGGCUCCACUUAGGGAUUCCUGAAGCAGUGUUUGUGGAAGAUGUAGAUUCUUUCAUGAAGCAGCCUGGGAAUGAGACUGCAGAUACAGUGUUAAAGAAGCUGGAUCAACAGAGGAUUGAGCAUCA: 0.323 ratio
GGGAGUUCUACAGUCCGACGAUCUCCACACAGAAGCACAAUUUUGUCCUCUUCCAGACACUGUUGCCUCUACCUAGUUAGACAAAUAGGAUUUGACCUACAUUCUGUUGCCCCUAGGUUUGUGUUAGUGUCAGAAAUACUUAACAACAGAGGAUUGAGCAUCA: 0.513 ratio
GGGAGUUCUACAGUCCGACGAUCUAACCUUAACAAACGGAUCAGCUAUCUCUACAAACACUUUAACCGACAUGGGAAGUACAGAUAGGACGGGAAAUGUGUCACCCUGGAGAAGGGGAACAGGACUUAUCCCAGCAAGGAGAGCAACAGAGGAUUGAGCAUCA: 0.202 ratio
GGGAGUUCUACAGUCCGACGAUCCGAUUACACAGGGUCAAGACCGUCUGCAGCAAGCACAUGCAUCCCCUCCGACUGGUGUGAGUAGUAAGAAAAGCACACACAGACAGGAGGACAUCUGGAGCCACACAAACUGGGUGGAAACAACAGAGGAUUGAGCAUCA: 0.11 ratio
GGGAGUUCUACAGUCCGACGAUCCUGAGACUUACCCAGCAGCCAAAGCCCUGGCCUCCAAGUUCUUUGGCCAACAUGGAGGUGAAAGCCAGCAUACCAUCCAUGCCAUGGGACACUGUCACAUUGAUACAGCCUGGCUUUGGCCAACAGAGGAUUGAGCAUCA: 0.132 ratio
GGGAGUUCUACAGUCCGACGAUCACAAAAAAAUGUUGUAGUUGCAGAACUUAGUUUAUAAAAACAAAGAAUGUGUAUUUCUUCAAUAGCCGGGUAUUUGGAUUGUUCUCUUGAUAAUAUUUGAAUGUGACUCUUGGAUUUAAGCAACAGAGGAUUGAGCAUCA: 2.49 ratio
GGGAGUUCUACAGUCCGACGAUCCACGCAUCCAUCCAGAUGAACGUGGCCGAGGUUGACAAGGUCACAGGCAGGUUUAAUGGCCAGUUUAAAACUUAUGCUAUCUGCGGGGCCAUUCGUAGGAUGGGUGAGUCAGAUGAUUCCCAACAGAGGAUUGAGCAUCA: 0.0879 ratio
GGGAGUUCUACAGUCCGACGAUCGACAAGUAUUUCGGCAGUGUCUGUGAACUAGAUAUCAUCUUUAAUUUUGAGAAGGCUUAUUUUAUUUUGGAUGAGUUUCUUUUGGGAGGGGAAGUUCAGGAAACAUCCAAGAAAAAUGUCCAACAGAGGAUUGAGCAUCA: 0.782 ratio
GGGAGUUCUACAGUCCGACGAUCCCUGGUGGGCAUGUGGGCCGUUUCUGCAUCUGGACGGAGAGUGCUUUCCGGAAGUUGGAUGAGCUGUAUGGCACUUGGCGGAAGGCUGCUUCCCUCAAGAGUAACUAUAACCUGCCCAUGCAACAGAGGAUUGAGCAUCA: 0.176 ratio
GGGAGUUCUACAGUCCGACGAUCGAUCCACAGUUCAAAGCAAACAGAAUCGACCGUUUGAUGAAUAAUCACAUUGAAGAUCCAGAUAAAGGCCUCUCAAAAUCUUCCUCUGAACUAGGUAUGAUUUUCAAUGAACGUGAUCAGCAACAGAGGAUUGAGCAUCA: 0.169 ratio
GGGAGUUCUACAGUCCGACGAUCCCGUUUCUAGUAUAUUCCUGUAAAUGUCAGUUACUGAAAAUGAGUCCAAUGUAAGUAGUUUAGCUUGUUUAUUGCAAUGCUGGCCUCAACACAACAGAAUAAAAAUGGUAGAAAGUACUCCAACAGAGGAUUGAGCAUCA: 0.712 ratio

Series 4
Target: Ras GTPase-activating protein-binding protein 1, C-terminal RGG region (G3BP1, Homo sapiens, UniProt Q13283)
Sequence of UniProt Q13283 (whole entry, looked up): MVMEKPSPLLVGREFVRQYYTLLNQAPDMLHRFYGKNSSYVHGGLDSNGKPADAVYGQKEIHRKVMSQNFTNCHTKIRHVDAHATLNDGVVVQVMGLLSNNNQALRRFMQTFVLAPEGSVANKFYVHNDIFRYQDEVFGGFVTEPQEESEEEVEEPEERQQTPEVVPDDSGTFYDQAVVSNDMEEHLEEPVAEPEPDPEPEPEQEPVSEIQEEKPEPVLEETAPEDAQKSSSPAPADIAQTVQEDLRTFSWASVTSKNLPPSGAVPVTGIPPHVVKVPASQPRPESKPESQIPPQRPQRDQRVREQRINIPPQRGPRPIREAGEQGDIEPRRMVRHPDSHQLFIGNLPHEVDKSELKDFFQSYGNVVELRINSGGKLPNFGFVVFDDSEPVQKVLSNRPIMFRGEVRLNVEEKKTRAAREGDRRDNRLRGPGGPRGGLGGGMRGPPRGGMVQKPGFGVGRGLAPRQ
Method: RNA Bind-n-Seq
Molecule type: RNA
Sample: in vitro
Tested at: 1 µM
Setting: whole 134-nt RNA, ends assumed
With: 150 mM KCl
Baseline: input library
Direction: higher = stronger binding
Quantity: log2 enrichment
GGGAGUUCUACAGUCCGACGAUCGUCCUGUGCUACACAUCGUAUGUACCGAAUCGGGGAGGGGUUUUUUUGGGGAAAGGGGAAAGUAUUAUGUUACGCCGUUCGGAUCUGCACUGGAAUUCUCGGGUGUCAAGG: 1.75
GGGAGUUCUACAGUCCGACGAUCCUCAAGUCCUGUGCUACACAUCGUAUGUACCGAAUCGGGAGGGGAGGGGAGGGAAAGUAUUAUGUUACGCCGUUCGGAUCUGCACUUCCAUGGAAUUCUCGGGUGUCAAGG: 2.47
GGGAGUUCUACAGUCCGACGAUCCUCAAGUCCUGUGCUACACAUCGUAUGUACCGAAUCGGUUGGGUUGGUUGGGGAAAGUAUUAUGUUACGCCGUUCGGAUCUGCACUUCCAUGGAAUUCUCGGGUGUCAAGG: -0.732
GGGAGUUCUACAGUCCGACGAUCCCUCAAGUCCUGUGCUACACAUCGUAUGUACCGAAUCGGGGCGGCGGGGCGGGAAAGUAUUAUGUUACGCCGUUCGGAUCUGCACUUCCAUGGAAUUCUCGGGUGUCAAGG: 0.0832
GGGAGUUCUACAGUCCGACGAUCAAGUCCUGUGCUACACAUCGUAUGUACCGAAUCGGGUGGGAAAAAGGGUUUUUGGGAAAGUAUUAUGUUACGCCGUUCGGAUCUGCACUUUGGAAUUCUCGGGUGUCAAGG: 0.829
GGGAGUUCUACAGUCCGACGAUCUCCUCAAGUCCUGUGCUACACAUCGUAUGUACCGAAUCGGCGGCGGGGCGGGAAAGUAUUAUGUUACGCCGUUCGGAUCUGCACUUCCAGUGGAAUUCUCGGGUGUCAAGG: -0.263
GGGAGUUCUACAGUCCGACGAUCGCAGCAAGUAAAAACAAAUGGAAAUGCUUCGGAUAGUGGCAGGGGUGGGGGUUGCUAAGGAAAGGGUGGGAUGGGAGUGGGUAAAGAGUUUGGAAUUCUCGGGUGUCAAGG: 1.77
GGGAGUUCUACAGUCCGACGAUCCAAGUCCUGUGCUACACAUCGUAUGUACCGAAUCGGUUUUUUUGGAAAGGUUUGGAAAGUAUUAUGUUACGCCGUUCGGAUCUGCACUUCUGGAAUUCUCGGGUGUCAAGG: -2.06
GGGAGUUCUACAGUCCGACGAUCAAGUCCUGUGCUACACAUCGUAUGUACCGAAUCGGUUUUUGGAAAAAAAGGAAAGGAAAGUAUUAUGUUACGCCGUUCGGAUCUGCACUUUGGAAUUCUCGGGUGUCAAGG: -2.21
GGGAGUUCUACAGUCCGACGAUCGUCCUGUGCUACACAUCGUAUGUACCGAAUCGGGGUUUUUUUGGGGUGGGGUUUGGGGAAAGUAUUAUGUUACGCCGUUCGGAUCUGCACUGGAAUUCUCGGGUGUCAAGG: 2.08
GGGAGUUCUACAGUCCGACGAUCUAACUUUAGAGGAGGAUCUGAUGGAUAUGGCCGUGGACGUGGAUUUGGGGAUGGCUAUAAUGGGUAUGGAGGAGGACCUGGAGGUGGCAAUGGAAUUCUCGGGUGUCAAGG: -1.35
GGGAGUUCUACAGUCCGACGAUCUCCUGUGCUACACAUCGUAUGUACCGAAUCGGGAAAAAGGGUUUUUUUGGGUUUUUGGGAAAGUAUUAUGUUACGCCGUUCGGAUCUGCAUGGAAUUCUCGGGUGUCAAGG: -0.78
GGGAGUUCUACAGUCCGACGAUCCUCAAGUCCUGUGCUACACAUCGUAUGUACCGAAUCGGGGAGGGAGGGGAGGGGAAAGUAUUAUGUUACGCCGUUCGGAUCUGCACUUCCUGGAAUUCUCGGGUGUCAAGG: 2.62
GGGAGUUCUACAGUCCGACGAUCUUCUCUAAGAGGAACUCCGGCGCGUCAGAGUAACAGAAGCGAGAGCACAGACAGUCUUGGGGGCUUGUCUCCCUCUGAAGUCACAGCCAUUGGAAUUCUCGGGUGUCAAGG: -0.279

For quick reference, copied from above (series 2):
AGCTGGGG: -0.3
AAGTGAGA: 0.017
ATTGTGTA: 0.237
TCGTACCA: 0.0182
